Results gathered from unrelated publications.
Each numbered part is a random draw from the data of one study; scales do not carry over between parts.

Sample 1
Target: Interferon regulatory factor 5, full length, phosphomimetic (IRF5, Homo sapiens, UniProt Q13568-2, residues 1-514, S451D/S453D/S456D/S462D)
Technique: protein-binding microarray
Molecule type: double-stranded DNA, one strand shown
Matrix: in vitro
Concentration: 940 nM top
Setting: 60-bp whole probe
Added: salmon DNA 0.4 mg/ml
Reference: random background probes
Reading: higher = stronger binding
Strand	fitted relative affinity [z-score]
GCCTAGCACGGCGAACTGGGGTTTCGAGACGTGCTAGTCTTGATTCGCTTGACGCTGCTG	1.93
GCCTAGCACGACGGTTTCGGTATCGTGACGTGCTAGGTCTTGATTCGCTTGACGCTGCTG	12.2
GCCTAGCACTTAGGACTGCTACTGCTTTTGTGCTAGGTCTTGATTCGCTTGACGCTGCTG	-0.356
GCCTAGCACTTAGGTATCGGTATCGGTGAGTGCTAGGTCTTGATTCGCTTGACGCTGCTG	10.8

Sample 2
Target: Hepatocyte nuclear factor 3-beta, forkhead domain (FOXA2, Homo sapiens, UniProt Q9Y261, residues 142-269)
Technique: protein-binding microarray
Molecule type: double-stranded DNA, one strand shown
Matrix: in vitro
Concentration: not given
Setting: k-mer, scored over probes, only values ≥0.25
Reading: higher = stronger binding
Construct (chain): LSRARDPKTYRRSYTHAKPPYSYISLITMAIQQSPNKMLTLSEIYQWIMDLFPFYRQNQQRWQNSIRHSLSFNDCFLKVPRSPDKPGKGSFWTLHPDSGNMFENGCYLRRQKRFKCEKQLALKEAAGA
Strand	E-score
GTACACAA	0.373
ACATTATA	0.337
GTAACATA	0.306

Sample 3
Target: Sal-like protein 4, full length isoform B (SALL4, Homo sapiens, UniProt Q9UJQ4-2, residues 1-616)
Technique: universal PBM
Molecule type: double-stranded DNA, one strand shown
Matrix: in vitro
Concentration: not given
Setting: 8-mer, flanks averaged, mean of replicates
Reading: higher = stronger binding
Residues (chain): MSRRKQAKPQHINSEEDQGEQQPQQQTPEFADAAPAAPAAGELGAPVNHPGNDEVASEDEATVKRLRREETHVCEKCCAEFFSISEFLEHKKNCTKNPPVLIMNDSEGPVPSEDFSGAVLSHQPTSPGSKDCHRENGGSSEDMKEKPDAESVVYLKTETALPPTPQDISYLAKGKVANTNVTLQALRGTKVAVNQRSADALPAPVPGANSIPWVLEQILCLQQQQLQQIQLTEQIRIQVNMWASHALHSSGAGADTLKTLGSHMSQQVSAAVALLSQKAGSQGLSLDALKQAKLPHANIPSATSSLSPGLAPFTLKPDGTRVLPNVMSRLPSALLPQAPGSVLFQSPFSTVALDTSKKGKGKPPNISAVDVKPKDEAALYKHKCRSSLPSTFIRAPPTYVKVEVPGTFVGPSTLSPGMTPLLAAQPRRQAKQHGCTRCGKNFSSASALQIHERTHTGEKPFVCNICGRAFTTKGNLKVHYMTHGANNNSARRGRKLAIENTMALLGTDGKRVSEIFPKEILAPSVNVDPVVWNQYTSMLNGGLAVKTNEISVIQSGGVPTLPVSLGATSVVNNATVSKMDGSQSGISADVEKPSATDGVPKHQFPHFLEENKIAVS
Strand	E-score
ATGACTGC	0.162
ACCTGGAC	-0.315
ACTAGAGC	-0.177
AGTGCGAC	-0.144
ACGCAATA	0.222
CCCGGACG	-0.367

Mixed results
Molecule	target	test	test system	setting	how to read	quantity	value
PhoQ, residues 284 288 289 292 302 303 SLSLRL	PhoP, residues 12 14 15 18 19 VHTVL (Escherichia coli, UniProt P23836)	Sort-seq, measured: YFP reporter	E. coli	PhoQ-PhoP variant library, added: 10 µM Mg2+	reference: high Mg2+ state, higher = stronger signaling	fold induction	75.5

A few entries again (mixed results):
Molecule	target	test	test system	setting	how to read	quantity	value
PhoQ, residues 284 288 289 292 302 303 SLSLRL	PhoP, residues 12 14 15 18 19 VHTVL (Escherichia coli, UniProt P23836)	Sort-seq, measured: YFP reporter	E. coli	PhoQ-PhoP variant library, added: 10 µM Mg2+	reference: high Mg2+ state, higher = stronger signaling	fold induction	75.5
